Measurements pooled from the literature.
A part holds a random share of what one study measured.
UniProt P10721, sequence (whole entry, unmodified, looked up): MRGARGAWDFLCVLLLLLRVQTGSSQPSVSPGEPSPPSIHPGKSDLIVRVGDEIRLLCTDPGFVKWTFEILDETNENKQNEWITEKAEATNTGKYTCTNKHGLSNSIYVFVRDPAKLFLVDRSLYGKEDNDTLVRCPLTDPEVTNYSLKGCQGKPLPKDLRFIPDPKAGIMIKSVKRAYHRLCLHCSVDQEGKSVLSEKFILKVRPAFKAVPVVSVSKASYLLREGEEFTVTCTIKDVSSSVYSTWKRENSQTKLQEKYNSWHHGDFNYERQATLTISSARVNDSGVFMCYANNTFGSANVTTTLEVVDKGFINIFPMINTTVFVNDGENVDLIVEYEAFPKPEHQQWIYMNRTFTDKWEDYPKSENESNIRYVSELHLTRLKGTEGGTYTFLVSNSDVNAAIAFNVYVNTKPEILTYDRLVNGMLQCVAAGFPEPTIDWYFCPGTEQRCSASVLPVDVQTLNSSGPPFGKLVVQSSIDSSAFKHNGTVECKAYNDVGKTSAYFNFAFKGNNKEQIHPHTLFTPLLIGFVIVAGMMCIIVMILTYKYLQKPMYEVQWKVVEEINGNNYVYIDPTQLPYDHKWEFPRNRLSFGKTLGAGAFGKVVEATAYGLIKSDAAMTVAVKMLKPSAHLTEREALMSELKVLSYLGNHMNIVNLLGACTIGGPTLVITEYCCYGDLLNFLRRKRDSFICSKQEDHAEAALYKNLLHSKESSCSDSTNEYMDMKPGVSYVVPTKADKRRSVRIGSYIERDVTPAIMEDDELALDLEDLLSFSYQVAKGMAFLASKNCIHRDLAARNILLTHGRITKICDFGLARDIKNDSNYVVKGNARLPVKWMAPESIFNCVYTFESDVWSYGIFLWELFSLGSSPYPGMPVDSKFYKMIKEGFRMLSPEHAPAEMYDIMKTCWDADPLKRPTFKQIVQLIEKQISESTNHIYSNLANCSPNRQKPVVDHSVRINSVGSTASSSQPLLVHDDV
UniProt P49759, sequence (whole entry, looked up): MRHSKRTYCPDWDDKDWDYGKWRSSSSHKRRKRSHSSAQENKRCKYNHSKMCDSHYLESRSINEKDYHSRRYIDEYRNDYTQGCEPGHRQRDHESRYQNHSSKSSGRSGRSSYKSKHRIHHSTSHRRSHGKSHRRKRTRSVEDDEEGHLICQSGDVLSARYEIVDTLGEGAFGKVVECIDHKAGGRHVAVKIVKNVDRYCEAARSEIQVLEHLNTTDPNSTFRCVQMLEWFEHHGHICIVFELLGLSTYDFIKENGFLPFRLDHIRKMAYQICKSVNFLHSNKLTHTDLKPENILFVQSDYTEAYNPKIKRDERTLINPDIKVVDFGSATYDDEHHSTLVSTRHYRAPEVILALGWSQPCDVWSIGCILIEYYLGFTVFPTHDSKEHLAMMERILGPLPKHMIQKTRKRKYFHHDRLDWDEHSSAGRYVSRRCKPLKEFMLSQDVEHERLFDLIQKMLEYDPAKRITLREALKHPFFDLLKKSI
UniProt Q9NQU5, sequence (whole entry, looked up): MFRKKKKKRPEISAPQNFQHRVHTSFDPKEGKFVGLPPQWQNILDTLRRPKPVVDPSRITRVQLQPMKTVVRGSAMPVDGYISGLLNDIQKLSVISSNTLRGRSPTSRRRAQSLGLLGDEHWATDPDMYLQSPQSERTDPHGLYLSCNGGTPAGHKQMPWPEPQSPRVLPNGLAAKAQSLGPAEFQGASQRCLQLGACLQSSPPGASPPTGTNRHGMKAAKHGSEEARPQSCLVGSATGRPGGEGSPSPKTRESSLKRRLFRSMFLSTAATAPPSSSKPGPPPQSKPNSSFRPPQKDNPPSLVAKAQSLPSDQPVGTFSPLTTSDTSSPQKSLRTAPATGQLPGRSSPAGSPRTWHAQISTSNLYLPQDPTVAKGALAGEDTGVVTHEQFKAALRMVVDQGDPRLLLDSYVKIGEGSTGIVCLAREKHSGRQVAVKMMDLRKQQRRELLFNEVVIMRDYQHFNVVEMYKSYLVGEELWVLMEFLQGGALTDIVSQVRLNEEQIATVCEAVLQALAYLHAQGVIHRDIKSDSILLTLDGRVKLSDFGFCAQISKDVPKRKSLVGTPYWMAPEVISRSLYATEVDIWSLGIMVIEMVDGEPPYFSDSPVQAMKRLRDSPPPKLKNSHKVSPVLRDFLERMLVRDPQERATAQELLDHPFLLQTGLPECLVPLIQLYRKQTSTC
UniProt P51812, sequence (whole entry, looked up): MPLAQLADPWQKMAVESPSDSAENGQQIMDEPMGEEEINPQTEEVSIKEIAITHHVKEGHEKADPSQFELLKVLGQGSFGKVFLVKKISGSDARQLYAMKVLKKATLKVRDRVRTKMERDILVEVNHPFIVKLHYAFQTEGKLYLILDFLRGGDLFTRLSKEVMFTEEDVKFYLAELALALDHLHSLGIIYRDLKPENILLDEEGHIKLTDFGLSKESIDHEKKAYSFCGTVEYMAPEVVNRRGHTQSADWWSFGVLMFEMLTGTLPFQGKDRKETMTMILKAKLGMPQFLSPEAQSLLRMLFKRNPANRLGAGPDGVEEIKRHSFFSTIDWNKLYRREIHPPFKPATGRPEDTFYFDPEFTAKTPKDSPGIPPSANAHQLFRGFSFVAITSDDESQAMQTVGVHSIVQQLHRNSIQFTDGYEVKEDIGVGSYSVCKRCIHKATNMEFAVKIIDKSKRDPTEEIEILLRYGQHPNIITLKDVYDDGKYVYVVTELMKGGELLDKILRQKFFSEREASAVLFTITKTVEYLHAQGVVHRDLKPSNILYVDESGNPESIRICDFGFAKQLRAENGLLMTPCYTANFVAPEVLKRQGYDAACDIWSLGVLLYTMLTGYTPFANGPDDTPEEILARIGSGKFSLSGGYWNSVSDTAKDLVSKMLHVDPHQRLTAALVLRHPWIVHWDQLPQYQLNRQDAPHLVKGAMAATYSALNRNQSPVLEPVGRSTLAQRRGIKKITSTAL
UniProt Q06418, sequence (whole entry, looked up): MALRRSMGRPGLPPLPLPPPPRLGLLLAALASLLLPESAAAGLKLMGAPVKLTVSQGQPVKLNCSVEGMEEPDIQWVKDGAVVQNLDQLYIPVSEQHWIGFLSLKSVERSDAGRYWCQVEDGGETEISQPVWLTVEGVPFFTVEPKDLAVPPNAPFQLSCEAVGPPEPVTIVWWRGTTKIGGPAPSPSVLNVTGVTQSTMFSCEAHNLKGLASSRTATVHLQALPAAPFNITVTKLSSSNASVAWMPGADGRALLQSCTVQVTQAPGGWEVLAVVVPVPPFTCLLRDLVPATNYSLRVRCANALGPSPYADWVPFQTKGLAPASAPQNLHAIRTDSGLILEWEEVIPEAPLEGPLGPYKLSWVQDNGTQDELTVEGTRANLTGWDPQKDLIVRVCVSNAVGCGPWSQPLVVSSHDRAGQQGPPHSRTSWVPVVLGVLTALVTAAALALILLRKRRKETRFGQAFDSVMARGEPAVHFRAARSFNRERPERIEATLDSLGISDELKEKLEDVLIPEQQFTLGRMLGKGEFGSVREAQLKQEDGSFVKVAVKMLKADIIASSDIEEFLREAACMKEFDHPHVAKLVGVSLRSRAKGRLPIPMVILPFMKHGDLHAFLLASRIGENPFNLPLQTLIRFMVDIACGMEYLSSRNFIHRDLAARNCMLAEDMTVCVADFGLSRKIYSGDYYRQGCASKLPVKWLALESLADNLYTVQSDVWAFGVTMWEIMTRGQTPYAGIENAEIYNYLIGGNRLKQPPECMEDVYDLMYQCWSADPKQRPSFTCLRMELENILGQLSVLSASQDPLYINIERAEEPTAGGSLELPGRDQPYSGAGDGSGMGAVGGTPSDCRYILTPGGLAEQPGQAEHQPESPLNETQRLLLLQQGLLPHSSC
UniProt P49760, sequence (whole entry, looked up): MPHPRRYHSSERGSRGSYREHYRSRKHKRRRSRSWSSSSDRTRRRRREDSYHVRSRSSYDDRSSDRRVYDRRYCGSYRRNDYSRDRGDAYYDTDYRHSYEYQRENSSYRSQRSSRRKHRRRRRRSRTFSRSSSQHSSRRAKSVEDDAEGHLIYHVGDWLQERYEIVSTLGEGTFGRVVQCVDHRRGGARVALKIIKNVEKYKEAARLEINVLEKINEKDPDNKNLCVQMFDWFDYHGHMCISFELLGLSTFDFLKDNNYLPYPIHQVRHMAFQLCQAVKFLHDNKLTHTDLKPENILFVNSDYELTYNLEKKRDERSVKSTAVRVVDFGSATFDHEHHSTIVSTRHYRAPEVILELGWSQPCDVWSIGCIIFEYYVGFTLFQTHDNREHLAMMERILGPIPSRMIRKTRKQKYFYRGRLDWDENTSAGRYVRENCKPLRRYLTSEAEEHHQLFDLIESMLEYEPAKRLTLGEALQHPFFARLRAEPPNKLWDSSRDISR
UniProt Q04759, sequence (whole entry, looked up): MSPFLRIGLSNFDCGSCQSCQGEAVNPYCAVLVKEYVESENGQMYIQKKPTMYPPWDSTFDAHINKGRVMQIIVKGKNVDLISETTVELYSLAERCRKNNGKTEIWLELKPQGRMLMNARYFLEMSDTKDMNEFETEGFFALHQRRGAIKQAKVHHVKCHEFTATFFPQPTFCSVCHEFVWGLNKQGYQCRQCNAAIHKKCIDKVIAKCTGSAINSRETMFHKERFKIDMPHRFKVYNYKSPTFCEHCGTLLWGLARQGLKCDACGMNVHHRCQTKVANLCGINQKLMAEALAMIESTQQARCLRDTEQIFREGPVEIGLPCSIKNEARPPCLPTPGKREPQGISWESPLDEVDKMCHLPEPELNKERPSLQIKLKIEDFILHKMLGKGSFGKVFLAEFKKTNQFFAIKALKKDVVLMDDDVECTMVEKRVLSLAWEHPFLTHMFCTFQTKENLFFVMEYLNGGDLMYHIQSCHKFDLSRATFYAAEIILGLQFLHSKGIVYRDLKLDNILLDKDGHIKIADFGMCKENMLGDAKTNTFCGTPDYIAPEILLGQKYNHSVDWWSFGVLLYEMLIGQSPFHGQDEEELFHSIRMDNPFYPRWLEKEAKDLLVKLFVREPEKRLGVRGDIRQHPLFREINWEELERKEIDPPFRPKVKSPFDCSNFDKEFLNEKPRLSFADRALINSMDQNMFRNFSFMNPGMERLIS

Sample 1
SMILES: O=C1c2ccccc2-c2n[nH]c3cccc1c23
Read-out: enzyme activity
Action: inhibitor
Tested at: 0.5 µM
Relative to: control
For Dual specificity protein kinase CLK2 (CLK2, Homo sapiens, UniProt P49760): remaining activity read 95.4%.
It gave 83.1% for remaining activity (Serine/threonine-protein kinase SIK2 (SIK2, Homo sapiens, UniProt Q9H0K1)).
Protein kinase C theta type (PRKCQ, Homo sapiens, UniProt Q04759) — remaining activity: 87.1%.
It gave 75.3% for remaining activity (Ribosomal protein S6 kinase alpha-3 (RPS6KA3, Homo sapiens, UniProt P51812)).
For Tyrosine-protein kinase receptor TYRO3 (TYRO3, Homo sapiens, UniProt Q06418): remaining activity read 88.4%.
For Casein kinase I isoform delta (CSNK1D, Homo sapiens, UniProt P48730): remaining activity read 13.1%.
Dual specificity protein kinase CLK1 (CLK1, Homo sapiens, UniProt P49759) — remaining activity: 82.6%.
Tyrosine-protein kinase Tec (TEC, Homo sapiens, UniProt P42680) — remaining activity: 102%.
The remaining activity was 94.5% (Serine/threonine-protein kinase PAK 6 (PAK6, Homo sapiens, UniProt Q9NQU5)).

Sample 2
SMILES: O=C(O)[C@@H]1[C@@H](Cn2nnc3ccccc3c2=O)CC[C@H]1C(=O)c1ccc(OCCC2CCOCC2)cc1
Method: competition with immobilised ligand
Tested at: 1 µM
It gave 100% for remaining binding (MAP/microtubule affinity-regulating kinase 3 (MARK3, Homo sapiens, UniProt P27448); cell-free assay).
The remaining binding was 78% (Vascular endothelial growth factor receptor 2 (KDR, Homo sapiens, UniProt P35968); cell-free assay).
Receptor tyrosine-protein kinase erbB-2 (ERBB2, Homo sapiens, UniProt P04626); cell-free assay — remaining binding: 100%.
Phosphatidylinositol 4,5-bisphosphate 3-kinase catalytic subunit alpha isoform (PIK3CA, Homo sapiens, UniProt P42336, E545A); cell-free assay — remaining binding: 100%.
It gave 100% for remaining binding (Tyrosine-protein kinase Fgr (FGR, Homo sapiens, UniProt P09769); cell-free assay).
For Microtubule-associated serine/threonine-protein kinase 1 (MAST1, Homo sapiens, UniProt Q9Y2H9); cell-free assay: remaining binding read 100%.
It gave 98% for remaining binding (Mast/stem cell growth factor receptor Kit (KIT, Homo sapiens, UniProt P10721, T670I/V559D); cell-free assay).
The remaining binding was 94% (Tyrosine-protein kinase TXK (TXK, Homo sapiens, UniProt P42681); binding).
For Tyrosine-protein kinase ABL1, non-phosphorylated (ABL1, Homo sapiens, UniProt P00519, Q252H); cell-free assay: remaining binding read 96%.
The remaining binding was 94% (Proto-oncogene tyrosine-protein kinase receptor Ret (RET, Homo sapiens, UniProt P07949, V804L); cell-free assay).
It gave 100% for remaining binding (Mast/stem cell growth factor receptor Kit (KIT, Homo sapiens, UniProt P10721, L576P); cell-free assay).
For Serine/threonine-protein kinase tousled-like 1 (TLK1, Homo sapiens, UniProt Q9UKI8); cell-free assay: remaining binding read 100%.
It gave 43% for remaining binding (Uncharacterized serine/threonine-protein kinase SBK3 (SBK3, Homo sapiens, UniProt P0C264); cell-free assay).
TRAF2 and NCK-interacting protein kinase (TNIK, Homo sapiens, UniProt Q9UKE5); cell-free assay — remaining binding: 93%.
Tyrosine-protein kinase CSK (CSK, Homo sapiens, UniProt P41240); cell-free assay — remaining binding: 90%.
Serine/threonine-protein kinase PAK 3 (PAK3, Homo sapiens, UniProt O75914); cell-free assay — remaining binding: 99%.

Sample 3
Species: human
Medium: microsomes or S9
Tested at: 2 µM
Time: 0.5 h
The remaining compound of `Cn1cc(-c2cnc3c(N)nn(Cc4cccc(C(F)(F)F)c4)c3c2)cn1` is reported as 63.8%.
The remaining compound of `Oc1cc2c(cc1C(c1ccc(Br)cc1)N1CCOCC1)OCO2` (stereo not drawn) is reported as 74.7%.
For `Cc1c(C)n2c3c(=O)[nH]c(=O)n(C)c3nc2n1Cc1ccco1`, the remaining compound was 89.5%.
The remaining compound of `COCCCNC(=O)NCCc1c(C)nn(C)c1C` is reported as greater than 99%.
`Cc1cc(C)c(CNC(C)CCC(C)C)c(C)c1CO` (stereo not drawn) has a remaining compound of 48.3%.
The remaining compound of `CC(C)c1nc2c(c(OC3CCCN(S(=O)(=O)c4cccs4)C3)n1)CCOCC2` (stereo not drawn) is reported as 0.0269%.
With `C=CCC(C)(NCc1ccccc1)c1ccccc1` (stereo not drawn) the remaining compound was 44.4%.

Further values, each from its own experiment
With `CCC[C@H]1NC(=O)CSC[C@@H](C(=O)OCC)N(C)C(=O)[C@H](CC(C)C)NC(=O)[C@@H](C)N(C)C(=O)[C@@H](CC(C)C)NC(=O)[C@H](C)N(C)C(=O)[C@@H]2CCCN2C(=O)[C@@H](CC(C)C)NC(=O)CN(C)C1=O` the logD was 0.158 (hydrocarbon/water).

Repeated from above (sample 1):
Protein kinase C theta type (PRKCQ, Homo sapiens, UniProt Q04759) — remaining activity: 87.1%.
It gave 75.3% for remaining activity (Ribosomal protein S6 kinase alpha-3 (RPS6KA3, Homo sapiens, UniProt P51812)).
For Tyrosine-protein kinase receptor TYRO3 (TYRO3, Homo sapiens, UniProt Q06418): remaining activity read 88.4%.
For Casein kinase I isoform delta (CSNK1D, Homo sapiens, UniProt P48730): remaining activity read 13.1%.
